Published values collected from several papers.
Lines come from different studies, so protocols differ.
Cell line: NCI-H460

Structure (SMILES) | assay | conditions | how to read | quantity | result
NNc1nc(-c2ccc(Cl)cc2)c2c(NC(=O)c3ccccc3)nnc-2[nH]1 | SRB | 10 µM, NCI60 single-dose screen | baseline: untreated | cell growth | 100%
CCCN1CCN(c2ccc3[nH]c(-c4ccc5[nH]c(-c6ccc(C(F)(F)F)cc6)nc5c4)nc3c2)CC1 | SRB | 10 µM, 48 h | – | growth percent | -88.5%
CCn1cc(-c2cc(Cn3ccoc3=N)cc3c2CCN([C@@H](C)c2cc(OC)ccn2)C3=O)c(C(F)(F)F)n1 | cell growth, inhibitor | 120 h | – | EC50 | > 30 µM
CCCN1CCN(c2ccc3[nH]c(-c4ccc5[nH]c(-c6ccc(OCC)c(OCC)c6)nc5c4)nc3c2)CC1 | SRB | 10 µM, 48 h | – | growth percent | -80.3%
CN(C)C(=N)N=C(N)N | flow cytometry, measured: surface PD-L1 | 10000 µM, 24 h | – | PD-L1 positive cells | 7.97%
CCCc1n(Cc2ccc3ccccc3c2)c2ccccc2[n+]1Cc1ccc2ccccc2c1.[Br-] | NCI60 five-dose screen | – | – | TGI | 1.36 µM
O=c1ccn(Cc2cn(-c3cc4ccccc4oc3=O)nn2)c(=O)[nH]1 | NCI60 single-dose screen | 10 µM | – | growth percentage | 99.8%
CCCCN1CCN(c2ccc3nc(-c4ccc5nc(-c6cc(OC)ccc6OC)[nH]c5c4)[nH]c3c2)CC1 | SRB | 10 µM, 48 h | – | growth percent | 99.6%
O=C(Nc1nnc2[nH]c(=S)[nH]c(-c3ccc(Cl)cc3)c1-2)c1ccccc1 | SRB | 10 µM, NCI60 single-dose screen | baseline: untreated | cell growth | 99.2%
O=C1NC(c2ccccc2)(c2ccccc2)C(=O)N1Cc1cn(-c2cc3ccccc3oc2=O)nn1 | NCI60 single-dose screen | 10 µM | – | growth percentage | 91.4%
CCCCN1CCN(c2ccc3[nH]c(-c4ccc5[nH]c(-c6ccc(OCC)cc6)nc5c4)nc3c2)CC1 | SRB | 10 µM, 48 h | – | growth percent | 75.9%
CCCCCCCCCCCCCCCCCCOc1ccc(CC(=O)OCC[N+](C)(C)C)cc1 | SRB | 10 µM | – | growth inhibition | < 0%
COc1cnc2cccc(N3CCc4c(cc(Cn5ccnc5C)cc4-c4cn(C)nc4C(F)(F)F)C3=O)c2c1 | cell growth, inhibitor | 120 h | – | EC50 | > 30 µM
C[C@H](Nc1ccc2c(c1)OCCn1cc(N3C(=O)OC[C@H]3C(F)F)nc1-2)C(N)=O | growth rate inhibition, CellTiter-Glo | 120 h | – | IC50 | 10 µM
CCOC(=O)CSc1nc(-c2ccc(Cl)cc2)c2c(NC(=O)c3ccccc3)nnc-2[nH]1 | SRB | 10 µM, NCI60 single-dose screen | baseline: untreated | cell growth | 97.5%
CCN(CC)c1ccc(C=NNC(=O)CSc2nc3ccccc3c(=O)n2Cc2ccc(S(N)(=O)=O)cc2)c(O)c1 | NCI five-dose screen | – | – | TGI | > 100 µM
Cc1n(Cc2ccc3ccccc3c2)c2ccccc2[n+]1Cc1ccc2ccccc2c1.[Br-] | NCI60 five-dose screen | – | – | TGI | 3.02 µM
CSc1nc(-c2ccc(Cl)cc2)c2c(NC(=O)c3ccccc3)nnc-2[nH]1 | SRB | 10 µM, NCI60 single-dose screen | baseline: untreated | cell growth | 115%
Cc1cc(=O)[nH]c(=O)n1Cc1cn(-c2c3ccccc3nc3ccccc23)nn1 | NCI60 single-dose screen | 10 µM | – | growth percentage | 99.3%
CCCCN1CCN(c2ccc3[nH]c(-c4ccc5[nH]c(-c6ccc(OCC)c(OCC)c6)nc5c4)nc3c2)CC1 | SRB | 10 µM, 48 h | – | growth percent | -84.3%
O=C(Nc1nnc2n3c(=S)[nH][nH]c3nc(-c3ccc(Cl)cc3)c1-2)c1ccccc1 | SRB | 10 µM, NCI60 single-dose screen | baseline: untreated | cell growth | 112%
S=C([S][Au-][P+](CCCCCC[P+]([Au-][S]C(=S)n1cccn1)(c1ccccc1)c1ccccc1)(c1ccccc1)c1ccccc1)n1cccn1 | cell growth, NCI-60 screen | non-small cell lung cancer | – | log10 TGI | > -4
Cc1cc(-c2ccccc2)n(-c2nc(-c3ccc(Cl)cc3)c3c(NC(=O)c4ccccc4)nnc-3[nH]2)n1 | SRB | 10 µM, NCI60 single-dose screen | baseline: untreated | cell growth | 98.3%
CCCCN1CCN(c2ccc3[nH]c(-c4ccc5[nH]c(-c6cc(OC)c(OC)c(OC)c6)nc5c4)nc3c2)CC1 | SRB | 10 µM, 48 h | – | growth percent | 83%

Repeated from above:
Structure (SMILES) | assay | conditions | how to read | quantity | result
O=C(Nc1nnc2n3c(=S)[nH][nH]c3nc(-c3ccc(Cl)cc3)c1-2)c1ccccc1 | SRB | 10 µM, NCI60 single-dose screen | baseline: untreated | cell growth | 112%
S=C([S][Au-][P+](CCCCCC[P+]([Au-][S]C(=S)n1cccn1)(c1ccccc1)c1ccccc1)(c1ccccc1)c1ccccc1)n1cccn1 | cell growth, NCI-60 screen | non-small cell lung cancer | – | log10 TGI | > -4
